Measurements of several laboratories.
Each numbered part is a random draw from the data of one study; scales do not carry over between parts. Positions count from the first letter of the parent shown.

Series 1
Target: CREB5, bZIP domain (human)
Technique: DHFR protein complementation
Matrix: yeast
Setting: single substitutions, most at no-binding floor
Baseline: wild-type JUN-FOS pair
Reading: higher = stronger binding
Endpoint: binding fitness
Starting sequence: JUN, bZIP domain (human); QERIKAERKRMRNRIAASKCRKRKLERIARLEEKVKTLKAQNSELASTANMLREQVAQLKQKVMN; partner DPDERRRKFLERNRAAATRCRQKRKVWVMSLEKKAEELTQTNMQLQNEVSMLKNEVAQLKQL
L52T: -1.4 natural log
V56M: -0.699 natural log
Q55T: -0.443 natural log
K39C: -0.52 natural log
K34T: -0.28 natural log
V56I: -0.105 natural log
E54T: -0.441 natural log
A29P: -0.989 natural log
M51Y: -0.299 natural log
S43C: -0.347 natural log
K34C: -0.483 natural log
M51G: -0.391 natural log
A29Q: -0.29 natural log
A57M: -0.456 natural log
M51F: -0.261 natural log
A57C: -0.537 natural log
N42G: -0.893 natural log

Series 2
Target: Histone acetyltransferase KAT6A, both winged helices, GST fusion (KAT6A, Homo sapiens, UniProt Q92794, residues 1-181)
Technique: protein binding microarray
Form: double-stranded DNA, one strand shown
Matrix: in vitro
Concentration: not given
Setting: 8-mer, flanks averaged, mean of 2 arrays, mostly near background
Baseline: not given
Reading: higher = stronger binding
Endpoint: E-score
Construct (chain): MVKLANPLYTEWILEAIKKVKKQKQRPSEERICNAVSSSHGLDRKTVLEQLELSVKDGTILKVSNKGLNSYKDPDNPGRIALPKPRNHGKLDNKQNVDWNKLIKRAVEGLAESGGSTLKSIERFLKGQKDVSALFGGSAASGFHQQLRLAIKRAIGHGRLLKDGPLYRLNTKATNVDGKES
AACTTATC: -0.0886
GTTGGGGA: -0.143
TCCAAGAA: -0.0179
ATGGGGCA: -0.202
ATTTGCAA: -0.0334
ACCGAACT: -0.0639
ACTAGTCT: -0.174
AAAATAAA: -0.177
CACAACTG: -0.0632
CCAGGCCA: -0.125
ATGGGGGG: -0.297
CCCTCTGA: -0.135
AGTATCCC: -0.0765
ACGTGTCT: -0.0275
CTGTTCAC: -0.0202
ATGTGTAA: -0.0848
AGTATGTG: -0.192
GAAACCAA: -0.122
CGGAGTGC: 0.14
ACAACCGT: 0.0404
CAGCTCCC: -0.0951
GGATCACA: 0.014
GACGACTA: -0.0436
ATCCCAGA: -0.145

Series 3
Target: CCNB2, cyclin fold, Cln2 fusion (human)
Technique: yeast growth competition, sequencing
Matrix: yeast
Setting: weak parent motif
Baseline: not given
Reading: higher = stronger binding
Endpoint: normalised enrichment score
Starting sequence: HASPIN docking peptide (human); ASLRSVLFGLMNS; partner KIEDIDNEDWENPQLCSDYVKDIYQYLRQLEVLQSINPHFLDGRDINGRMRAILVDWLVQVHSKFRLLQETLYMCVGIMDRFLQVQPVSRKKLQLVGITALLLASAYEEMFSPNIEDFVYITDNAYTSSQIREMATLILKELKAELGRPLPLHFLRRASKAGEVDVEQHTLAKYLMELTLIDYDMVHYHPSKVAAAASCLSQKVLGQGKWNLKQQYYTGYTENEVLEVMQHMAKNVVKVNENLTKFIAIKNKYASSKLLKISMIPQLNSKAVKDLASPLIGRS
V6A: 0.164
S5A: 0.634
R4A: -0.66
G9A: 0.678
F8A: -0.299
M11A: 1.18

Series 4
Target: RNA binding protein fox-1 homolog 2, RRM domain, GST-SBP tag (RBFOX2, Homo sapiens, UniProt O43251-10, residues 100-194)
Technique: RNA Bind-n-Seq
Form: RNA
Matrix: in vitro
Concentration: 365 nM
Setting: natural RNA segment, single round, ends assumed
Baseline: no-protein control
Reading: higher = stronger binding
Endpoint: RBNS enrichment (R)
Target sequence (chain): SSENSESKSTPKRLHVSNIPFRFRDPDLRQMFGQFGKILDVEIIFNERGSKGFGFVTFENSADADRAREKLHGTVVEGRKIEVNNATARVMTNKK
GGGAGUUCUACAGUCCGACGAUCCAGGACUUUUUUCUUUAAAGCUAGUCAUUUCAAAAGCAUAUUGUAUUUUUUUGAAUGACUACAGUAUGGACAAUUUCAAAAACCAAAACCCACUUUGGAUUGGUGGAAGUUGGAAUUCUCGGGUGCCAA: 0.476
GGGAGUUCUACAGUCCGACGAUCUCAUGUGUGCAACAGGGUAUGGACUAUCUGUCUGGUGGCCCCGUUUCUGGUGGUCUGUUGGCAGGCUGGCCAGUCCAGGCUGCCGUGGGGCCGCCGCCUCUUUCAAGCAGUGGAAUUCUCGGGUGCCAA: 0.371
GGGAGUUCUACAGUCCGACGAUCGCUGCUACACUACAGGACACCCAGCAUCGGCUUUGACUGCAGACUGUUCACCCACACGAGCCCUGUGCUUUUGGUGUAAAUAAUGUACAAUUUGUGGAUGUCAUUGAAUCUGGAAUUCUCGGGUGCCAA: 0.404
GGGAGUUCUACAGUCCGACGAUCGGAUGAGCUGAGUGGAGCCAGGCUGGCCCAGAGCUGAGAUGGGAGUGCGGUACAAUCUGGAGCCCACAGCUGUCGGUCAGAACCUCCUGUGAGACAGAUGGAACCUUCACUGGAAUUCUCGGGUGCCAA: 0.708
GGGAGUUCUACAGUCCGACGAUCCCUCUUUGAAACACCCCGUGUUGUCCAGUAUACCUUAUAACACUGAGCCACUUCUCCCCACCCUCCAGAAGGGGUCCACGUUGAAUUCUGAAUCAUCUUGAAAAUAAGAUUGGAAUUCUCGGGUGCCAA: 0.386
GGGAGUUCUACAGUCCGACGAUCUCCAUAUAGACACCAAGGAGGCGGAGGCGCUCCUCCCUGCCUCAGUGGCUCUGGGUACCUGCAAGCAGAACUUCCAAAGAGAGUUAAAAGCAGCAGCCCCGGCAACUCUGUGGAAUUCUCGGGUGCCAA: 0.371
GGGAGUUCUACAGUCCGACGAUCCAGCUCACCAGACCUGAGAAGAGAAAAGCUAUGGUGACAGAGCUGAUCUUUUUUUUUUUUUUUUUUAAAGAAGAAAAGAAAGAAACGAAAAGAAAAAGCUGAAGAAAUCAUGGAAUUCUCGGGUGCCAA: 0.535
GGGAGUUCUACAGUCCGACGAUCAAAUAUCCUGAGCUUUGAGUGUCCUUUCACAGAGUGAACAAAACUGGUGUGGUGUAGACACGGCUUCUUUUGGCAUAUUCUAGAUCAGACAGUGUCACUGACAAACAAGAUGGAAUUCUCGGGUGCCAA: 0.266
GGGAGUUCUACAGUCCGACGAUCGCCAAUGUGGGCUGGAACAACUCCACCUUCGCCUAGAGCCGCAGGGACCCACGCUGUCUGCGCUGGCUCCACCCGGGAACCCGCCGCACGCUGUGUUCUAGGCCCGCCCAUGGAAUUCUCGGGUGCCAA: 2.15
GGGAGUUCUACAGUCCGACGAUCAGACGCUGUUUUCACCCCUUCCUCCUCCUAGCCUCUCUCCCAAAAAGUAAAACACAAUGCUGAAGAAUAUUGGUGUGACUUUUGAAUGUUACCGAUUGGAUGUAAAAUGCUGGAAUUCUCGGGUGCCAA: 1.27
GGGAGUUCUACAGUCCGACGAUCCAUCUGGCACCAAUUAGGUAUUUCUUAAAACAGGACUCAUCUGUCAGAGUGCACAUGAAAAAUCAGGCAGGGAAUCGAAACGACAGUGCUGGAGGAGACUCAGGAAGCAGUGGAAUUCUCGGGUGCCAA: 0.438
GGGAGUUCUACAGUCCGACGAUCAAUCGGGAUUUUGACUGAAUGGGAUGUCUGGCAUGAGUCCCACUUUGGCCAUUGUCUAUUUGACAGUAACAGUAUUCCCAAUUUUUGUAAAGUUGUAUGUGCUGUUGUGUUGGAAUUCUCGGGUGCCAA: 3.65

Series 5
Target: ABI1, truncated, D143A, DHFR fusion (Arabidopsis thaliana)
Technique: DHFR PCA, deep sequencing
Matrix: yeast
Setting: methotrexate growth selection, single substitutions
With: (+)-ABA 0.11 µM
Baseline: wild-type fitted maximum
Reading: higher = stronger binding
Endpoint: relative binding score
Starting sequence: PYL1, truncated, DHFR fusion (Arabidopsis thaliana); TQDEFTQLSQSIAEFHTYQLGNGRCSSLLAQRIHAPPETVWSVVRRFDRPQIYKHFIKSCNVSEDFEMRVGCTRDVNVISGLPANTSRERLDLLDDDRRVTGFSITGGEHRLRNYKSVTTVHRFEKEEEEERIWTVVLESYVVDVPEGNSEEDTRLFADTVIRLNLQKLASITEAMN
V62D: -3.81%
R74H: -1.22%
R24S: 8.39%
S171C: 29.3%
D65A: 6.78%
T101F: 65.3%
V143R: -3.78%
F5D: 2.59%
L138V: 2.16%
R123M: 2.81%
N165I: 4.91%
Q10I: 5.95%
E14H: 2.8%
E4C: 25%
T135Y: -6.46%
L94T: -10.2%
K126C: 57.5%

Series 6
Target: Interferon regulatory factor 7, full length, phosphomimetic (IRF7, Homo sapiens, UniProt Q92985, residues 1-503, S101K/S471D/S472D/S475D/S476D/S477D/S483D/S484D/S487D)
Technique: protein-binding microarray
Form: double-stranded DNA, one strand shown
Matrix: in vitro
Concentration: 250 nM
Setting: 60-bp whole probe
With: salmon DNA 0.4 mg/ml
Baseline: random background probes
Reading: higher = stronger binding
Endpoint: log fluorescence
Constant ends, left off below: GCCTAGCAC … GTCTTGATTCGCTTGACGCTGCTG
Target sequence (chain): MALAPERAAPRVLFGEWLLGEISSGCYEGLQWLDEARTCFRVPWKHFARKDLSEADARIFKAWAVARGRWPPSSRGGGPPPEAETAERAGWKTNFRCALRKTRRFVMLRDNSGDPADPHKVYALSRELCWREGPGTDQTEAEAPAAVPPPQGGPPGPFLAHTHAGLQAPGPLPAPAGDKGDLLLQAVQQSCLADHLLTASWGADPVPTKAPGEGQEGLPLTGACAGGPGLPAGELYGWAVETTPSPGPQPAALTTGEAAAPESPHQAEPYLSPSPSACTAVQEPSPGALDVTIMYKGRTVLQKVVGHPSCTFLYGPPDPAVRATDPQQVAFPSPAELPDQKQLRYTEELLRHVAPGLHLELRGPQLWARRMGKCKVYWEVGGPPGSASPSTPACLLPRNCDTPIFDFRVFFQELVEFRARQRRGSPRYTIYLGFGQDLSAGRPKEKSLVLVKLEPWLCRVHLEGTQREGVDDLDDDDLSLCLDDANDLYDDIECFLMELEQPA
GACGGTATCGGTCACGGGACGTGCTAG: -0.0318 z-score
ATTGTTTCCTTCCTCTTTTAGTGCTAG: 2.94 z-score
GACGGTATCCTCCTCCTGACGTGCTAG: -0.3 z-score
TTAGATCTCAGACTAGATTAGTGCTAG: -0.154 z-score
CCTTTTTTGTTGTTTTTTGGGTGCTAG: 1.49 z-score
TTAGGTTTCGACTTTCGCTTAGTGCTA: 11.2 z-score
GACGGTATCCTTATCCTGAGGTGCTAG: 0.149 z-score
TTAGAACTGGGGACTGGAATAGTGCTA: -0.389 z-score
GACGATATCGGGTATCAAGACGTGCTA: -0.329 z-score
TGAGGACTGGGTCTCGGTTAGTGCTAG: 0.576 z-score
TTAGATTCCAGTTTCGACTAGTGCTAG: 6.31 z-score
TCTTTTTTTCTTTTATTAGTGTGCTAG: 2.09 z-score
TTAGTTATCAGACTGGATTAGTGCTAG: 0.257 z-score
GACTGACTGCTTCTCCTGACGTGCTAG: -0.243 z-score
GACGGACTGCTACTGATGACGTGCTAG: -0.799 z-score
TTAGATATCAGTCTCGATGAGTGCTAG: 0.0906 z-score
TTAGGTTTCGGTCTCGGTTGGTGCTAG: 8.12 z-score
TTAGAACTGAGTTTCGATTAGTGCTAG: 8.12 z-score
TTAGGTCTCCTACTGCTTTTGTGCTAG: -0.235 z-score
TTAGGACTGGGTTTCCGTTAGTGCTAG: 1.83 z-score
TCACCTGTCTACATGGGACTGTGCTAG: -0.102 z-score
TTTGATCTCAGACTGGATTAGTGCTAG: -0.088 z-score

Excerpt of the above (series 1):
M51Y: -0.299 natural log
A57C: -0.537 natural log
A57M: -0.456 natural log
V56M: -0.699 natural log
Q55T: -0.443 natural log
K34T: -0.28 natural log
L52T: -1.4 natural log
A29Q: -0.29 natural log
E54T: -0.441 natural log
N42G: -0.893 natural log
K34C: -0.483 natural log
S43C: -0.347 natural log
A29P: -0.989 natural log
M51G: -0.391 natural log
M51F: -0.261 natural log
V56I: -0.105 natural log
